Measurements of several laboratories.
Lines come from different studies, so protocols differ.
PPARG: Peroxisome proliferator-activated receptor gamma (PPARG, Homo sapiens, UniProt P37231)
UniProt P37231, sequence (whole entry, looked up): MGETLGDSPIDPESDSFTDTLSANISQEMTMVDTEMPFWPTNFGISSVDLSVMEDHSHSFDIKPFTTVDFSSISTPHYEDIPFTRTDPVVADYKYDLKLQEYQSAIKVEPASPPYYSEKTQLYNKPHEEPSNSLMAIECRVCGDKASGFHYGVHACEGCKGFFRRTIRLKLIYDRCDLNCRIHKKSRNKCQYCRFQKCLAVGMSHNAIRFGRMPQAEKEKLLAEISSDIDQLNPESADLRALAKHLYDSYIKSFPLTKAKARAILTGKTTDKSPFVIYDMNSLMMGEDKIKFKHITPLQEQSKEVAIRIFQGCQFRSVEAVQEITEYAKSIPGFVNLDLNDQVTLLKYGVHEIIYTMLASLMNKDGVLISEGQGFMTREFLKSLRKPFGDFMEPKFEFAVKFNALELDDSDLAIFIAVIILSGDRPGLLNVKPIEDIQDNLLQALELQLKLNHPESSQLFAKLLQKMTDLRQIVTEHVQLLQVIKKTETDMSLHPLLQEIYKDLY
Rhomboid protease AarA: Rhomboid protease AarA (Providencia stuartii, UniProt P46116)
UniProt P46116, sequence (whole entry, looked up): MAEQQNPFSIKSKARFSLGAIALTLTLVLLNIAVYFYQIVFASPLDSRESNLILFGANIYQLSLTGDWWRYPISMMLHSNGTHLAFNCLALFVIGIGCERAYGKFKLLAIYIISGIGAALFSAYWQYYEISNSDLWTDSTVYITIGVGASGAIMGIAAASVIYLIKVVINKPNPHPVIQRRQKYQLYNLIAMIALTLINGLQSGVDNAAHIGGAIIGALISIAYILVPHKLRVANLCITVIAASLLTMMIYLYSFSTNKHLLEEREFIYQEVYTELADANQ
UniProt O08914, sequence (whole entry, looked up): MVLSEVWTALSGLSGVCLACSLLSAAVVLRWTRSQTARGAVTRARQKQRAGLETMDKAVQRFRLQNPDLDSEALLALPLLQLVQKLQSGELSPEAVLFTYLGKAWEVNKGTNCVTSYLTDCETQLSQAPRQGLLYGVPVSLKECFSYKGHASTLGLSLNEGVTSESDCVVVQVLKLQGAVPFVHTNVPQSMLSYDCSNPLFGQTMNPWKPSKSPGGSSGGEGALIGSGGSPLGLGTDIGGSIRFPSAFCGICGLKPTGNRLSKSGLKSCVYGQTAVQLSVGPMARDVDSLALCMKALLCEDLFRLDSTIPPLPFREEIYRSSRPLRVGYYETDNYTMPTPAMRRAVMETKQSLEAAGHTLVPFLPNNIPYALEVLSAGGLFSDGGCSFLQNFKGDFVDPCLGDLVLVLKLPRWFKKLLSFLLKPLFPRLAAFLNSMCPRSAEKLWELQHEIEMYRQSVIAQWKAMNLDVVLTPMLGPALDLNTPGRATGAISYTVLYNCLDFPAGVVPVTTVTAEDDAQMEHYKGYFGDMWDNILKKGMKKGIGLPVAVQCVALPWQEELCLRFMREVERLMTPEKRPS
UniProt Q13547, sequence (whole entry, looked up): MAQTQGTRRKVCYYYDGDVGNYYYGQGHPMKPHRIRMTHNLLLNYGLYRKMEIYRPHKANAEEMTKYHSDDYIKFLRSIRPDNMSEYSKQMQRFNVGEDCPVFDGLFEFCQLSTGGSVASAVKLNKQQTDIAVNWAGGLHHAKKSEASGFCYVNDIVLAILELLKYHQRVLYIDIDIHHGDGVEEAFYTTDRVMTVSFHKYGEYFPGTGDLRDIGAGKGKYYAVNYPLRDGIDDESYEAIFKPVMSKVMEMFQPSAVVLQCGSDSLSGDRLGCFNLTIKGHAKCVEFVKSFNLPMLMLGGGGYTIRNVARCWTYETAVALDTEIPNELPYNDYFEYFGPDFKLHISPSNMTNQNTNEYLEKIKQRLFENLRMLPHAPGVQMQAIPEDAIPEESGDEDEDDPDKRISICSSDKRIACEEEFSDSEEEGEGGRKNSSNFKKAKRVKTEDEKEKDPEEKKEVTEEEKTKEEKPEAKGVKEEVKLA
UniProt P51681, sequence (whole entry, looked up): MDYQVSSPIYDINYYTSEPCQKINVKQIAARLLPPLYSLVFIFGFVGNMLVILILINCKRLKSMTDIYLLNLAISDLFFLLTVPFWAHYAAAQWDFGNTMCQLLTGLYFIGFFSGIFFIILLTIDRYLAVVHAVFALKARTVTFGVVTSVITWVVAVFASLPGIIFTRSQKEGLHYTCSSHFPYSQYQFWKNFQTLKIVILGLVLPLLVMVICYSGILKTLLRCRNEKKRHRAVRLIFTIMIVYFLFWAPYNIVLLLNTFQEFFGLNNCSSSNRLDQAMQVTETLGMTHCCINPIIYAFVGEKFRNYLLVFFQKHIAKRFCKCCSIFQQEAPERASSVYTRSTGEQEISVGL
UniProt P40306, sequence (whole entry, looked up): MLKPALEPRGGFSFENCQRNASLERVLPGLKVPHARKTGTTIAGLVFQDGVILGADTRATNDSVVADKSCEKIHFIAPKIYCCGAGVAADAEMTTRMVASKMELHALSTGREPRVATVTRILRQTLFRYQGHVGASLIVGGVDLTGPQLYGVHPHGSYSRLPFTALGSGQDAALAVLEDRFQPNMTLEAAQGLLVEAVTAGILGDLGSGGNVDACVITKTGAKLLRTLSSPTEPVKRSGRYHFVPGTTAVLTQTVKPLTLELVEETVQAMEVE
UniProt O96028, sequence (whole entry, looked up): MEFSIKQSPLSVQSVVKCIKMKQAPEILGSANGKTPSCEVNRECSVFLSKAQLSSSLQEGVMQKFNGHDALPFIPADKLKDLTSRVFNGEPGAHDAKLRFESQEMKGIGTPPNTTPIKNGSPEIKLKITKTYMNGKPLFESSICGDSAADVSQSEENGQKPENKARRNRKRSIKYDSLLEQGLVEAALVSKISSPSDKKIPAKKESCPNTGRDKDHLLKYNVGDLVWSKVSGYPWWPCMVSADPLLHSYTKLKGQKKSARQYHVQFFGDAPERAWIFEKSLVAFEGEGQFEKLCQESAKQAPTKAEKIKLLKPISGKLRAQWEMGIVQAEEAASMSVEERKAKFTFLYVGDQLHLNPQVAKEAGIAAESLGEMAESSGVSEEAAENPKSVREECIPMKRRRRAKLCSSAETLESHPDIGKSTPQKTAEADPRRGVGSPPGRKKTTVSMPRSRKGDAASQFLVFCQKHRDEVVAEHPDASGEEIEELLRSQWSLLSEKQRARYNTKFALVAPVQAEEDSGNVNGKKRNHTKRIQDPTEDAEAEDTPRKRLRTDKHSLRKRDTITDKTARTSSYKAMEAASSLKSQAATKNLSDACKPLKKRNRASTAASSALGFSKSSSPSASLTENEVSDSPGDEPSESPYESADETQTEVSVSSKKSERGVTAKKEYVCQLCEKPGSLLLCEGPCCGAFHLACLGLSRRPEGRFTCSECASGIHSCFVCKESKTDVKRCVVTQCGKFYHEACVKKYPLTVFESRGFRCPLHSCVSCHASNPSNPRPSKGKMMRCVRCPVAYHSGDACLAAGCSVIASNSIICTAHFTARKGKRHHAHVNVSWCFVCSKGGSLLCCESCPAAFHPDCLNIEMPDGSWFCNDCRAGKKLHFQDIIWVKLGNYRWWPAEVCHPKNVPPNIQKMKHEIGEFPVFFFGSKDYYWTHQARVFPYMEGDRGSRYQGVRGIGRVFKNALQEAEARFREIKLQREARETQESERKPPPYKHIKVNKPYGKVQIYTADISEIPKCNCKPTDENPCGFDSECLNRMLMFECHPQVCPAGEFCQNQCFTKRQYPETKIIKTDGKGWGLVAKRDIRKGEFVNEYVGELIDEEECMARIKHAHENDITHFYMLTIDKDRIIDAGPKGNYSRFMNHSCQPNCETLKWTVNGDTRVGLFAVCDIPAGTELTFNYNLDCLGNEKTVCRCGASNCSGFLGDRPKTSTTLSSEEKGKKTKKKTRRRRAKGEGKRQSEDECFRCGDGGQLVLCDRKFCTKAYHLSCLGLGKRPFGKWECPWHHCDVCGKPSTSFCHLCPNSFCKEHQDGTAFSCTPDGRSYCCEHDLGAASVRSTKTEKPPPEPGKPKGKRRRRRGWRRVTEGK
UniProt P28065, sequence (whole entry, looked up): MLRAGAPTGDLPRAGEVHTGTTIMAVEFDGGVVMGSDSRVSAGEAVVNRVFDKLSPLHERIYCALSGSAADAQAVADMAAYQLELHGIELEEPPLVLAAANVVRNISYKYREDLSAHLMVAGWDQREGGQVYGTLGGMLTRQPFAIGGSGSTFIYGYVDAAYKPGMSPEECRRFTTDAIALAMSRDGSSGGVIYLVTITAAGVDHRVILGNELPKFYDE
UniProt P07550, sequence (whole entry, unmodified, looked up): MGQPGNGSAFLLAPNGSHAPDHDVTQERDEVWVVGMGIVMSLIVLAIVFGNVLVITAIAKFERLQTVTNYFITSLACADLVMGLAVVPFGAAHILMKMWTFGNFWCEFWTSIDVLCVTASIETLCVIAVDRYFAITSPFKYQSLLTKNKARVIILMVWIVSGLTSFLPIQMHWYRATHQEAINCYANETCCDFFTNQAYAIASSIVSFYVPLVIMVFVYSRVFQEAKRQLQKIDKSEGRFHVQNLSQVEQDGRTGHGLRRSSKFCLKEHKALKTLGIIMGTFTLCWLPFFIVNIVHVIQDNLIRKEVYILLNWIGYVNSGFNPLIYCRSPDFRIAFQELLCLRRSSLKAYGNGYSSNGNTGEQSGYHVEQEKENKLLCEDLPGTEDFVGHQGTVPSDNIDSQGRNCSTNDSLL

`Cc1c(Cc2cccc(OC(C)(C)C(=O)O)c2)c2ccc(C(=O)N[C@H](C)c3ccc(C(C)(C)C)cc3)cc2n1C` has an IC50 of 1 nM (PPARG; ligand displacement, TR-FRET).
`COCCN(C)C(C)C(=O)NC(Cc1ccc(-c2ccccc2)cc1)B(O)O` (stereo not shown) has an IC50 of > 10000 nM (Proteasome subunit beta type-9 / Proteasome subunit beta type-10 (Homo sapiens, UniProt P28065+P40306); β1i activity, inhibitor; immunoproteasome, with: Ac-PAL-AMC).
The IC50 of `Cc1c(Cc2cccc(OC(C)C(=O)O)c2)c2ccc(C(=O)N[C@@H](C)c3cccc(C(C)C)c3)cc2n1C` (stereo partly shown) is reported as 2850 nM (Peroxisome proliferator-activated receptor gamma, ligand-binding domain (PPARG, Homo sapiens, UniProt P37231); reporter gene, luciferase reporter; HEK293T, Gal4-PPARγ LBD).
`O=C(CCCCCCc1ccccc1)c1ncc(-c2ccc(CBr)cn2)o1` gave an IC50 of < 10 nM (Faah (Mus musculus, UniProt O08914); enzyme activity, inhibitor; with preincubation).
With `Cc1nc2c(F)cc(-c3nc(Nc4ccc(NC(=O)CCCCCC(=O)NO)cc4)ncc3F)cc2n1C(C)C` the IC50 was 17 nM (HDAC1 (Homo sapiens, UniProt Q13547); enzyme activity, inhibitor).
With `Cc1nc(S(=O)(=O)Nc2cc3c(cc2Oc2cccc(COCC(C)C)c2)n(C)c(=O)n3C)cn1C` the IC50 was 323 nM (Peregrin, bromodomain (BRPF1, Homo sapiens, UniProt P55201)).
`COc1c(Cl)cccc1Nc1c(-c2ccncc2OC[C@@H]2COCCO2)[nH]c2c1C(=O)NCC2` has an IC50 of 14 nM (ERBB4 (Homo sapiens, UniProt Q15303); kinase activity, inhibitor, TR-FRET; with: ATP 2 mM).
With `O=C(NCc1ccc(N2CCOCC2)cc1)C(C(F)(F)F)C(F)(F)F` the IC50 was 25000 nM (Rhomboid protease AarA; enzyme activity, inhibitor, fluorescence).
`Cc1c(Cc2cccc(OC(C)(C)C(=O)O)c2)c2ccc(C(=O)N[C@@H](C)c3cccc(C(F)(F)F)c3)cc2n1C` gave an IC50 of 1 nM (PPARG; ligand displacement, TR-FRET).
`O=C1C(Cl)=C(NCCNCCO)C(=O)c2ccccc21` has an IC50 of 120 nM (NSD2 (Homo sapiens, UniProt O96028); enzyme activity, inhibitor, AlphaLISA).
With `CC(C)(C)OC(=O)c1ccccc1NC(=O)C(C(F)(F)F)C(F)(F)F` the IC50 was 1300 nM (Rhomboid protease AarA; enzyme activity, inhibitor, fluorescence).
`Cc1c(Cc2cccc(OC(C)(C)C(=O)O)c2)c2ccc(C(=O)N[C@@H](C)c3cccc(C(C)(C)C)c3)cc2n1C` has an IC50 of 3 nM (PPARG; ligand displacement, TR-FRET).
The IC50 of `COCCNC(=O)COc1ccccc1NC(=O)C(C(F)(F)F)C(F)(F)F` is reported as 18000 nM (Rhomboid protease AarA; enzyme activity, inhibitor, fluorescence).
`Cc1nnc(C(C)C)n1C1CC2CCC(C1)N2CCC(NC(=O)COCCOCCNC(=O)Cc1ccc(-c2nncnn2)cc1)c1ccccc1` (stereo not shown) gave an IC50 of 437 nM (CCR5 (Homo sapiens, UniProt P51681); calcium mobilization, antagonist; HEK-293T; 2 h preincubation, top constrained to 1, with: 0.1 µM PSC-RANTES).
`O=C(NCc1ccccc1)c1ccccc1NC(=O)C(C(F)(F)F)C(F)(F)F` has an IC50 of 4700 nM (Rhomboid protease AarA; enzyme activity, inhibitor, fluorescence).
With `Fc1ccc(Nc2nc(NC3CCCCC3)c3cc(Br)ccc3n2)cc1F` the IC50 was 251 nM (ADRB2 (Homo sapiens, UniProt P07550, I153L); β-arrestin2 recruitment, antagonist, BRET; HEK293; mutant I153L, with: isoprenaline 1 µM).

Excerpt of the above:
With `O=C(NCc1ccc(N2CCOCC2)cc1)C(C(F)(F)F)C(F)(F)F` the IC50 was 25000 nM (Rhomboid protease AarA; enzyme activity, inhibitor, fluorescence).
`O=C(NCc1ccccc1)c1ccccc1NC(=O)C(C(F)(F)F)C(F)(F)F` has an IC50 of 4700 nM (Rhomboid protease AarA; enzyme activity, inhibitor, fluorescence).
